# Assay results collected from several papers.
# Numbered parts are unrelated; each lists some results of a single study.

# Series 1
# Cell line: HEK-293T/ACE2
# Tested at: 10 µM
# Time: 16 h
# Reference: vehicle
Compound,viability
CCCNC(C)C(=O)Nc1ccccc1C (stereo not shown),100%
COC(=O)C1=C(C)NC(C)=C(C(=O)OC(C)C)C1c1cccc2nonc12 (stereo not shown),98.7%
CC1(C)S[C@@H]2[C@H](NC(=O)[C@H](N)c3ccccc3)C(=O)N2[C@H]1C(=O)O,101%
COc1ccc(C(=O)CC(=O)c2ccc(C(C)(C)C)cc2)cc1,101%

# Series 2
# Substance: bismuth potassium citrate
# Mode: inhibitor
# Tested at: 20 µM
# rep nsp13 helicase: Replicase polyprotein 1ab, nsp13 helicase (rep, Severe acute respiratory syndrome coronavirus 2, UniProt P0DTD1)
target,test,conditions,inhibition [%]
rep nsp13 helicase,"helicase activity, measured: nsp13 helicase",,99.6
rep nsp13 helicase,"helicase activity, measured: nsp13 helicase",with DTT,1.97
"Replicase polyprotein 1ab, nsp12 with nsp7/nsp8 (rep, Severe acute respiratory syndrome coronavirus 2, UniProt P0DTD1)",RdRp activity,,-6.17

# Series 3
# Target: Replicase polyprotein 1ab, main protease (rep, Severe acute respiratory syndrome coronavirus 2, UniProt P0DTD1)
# Effect on: enzyme activity
# Mode: inhibitor
# Notes: without DTT
SMILES,IC50 [nM]
Oc1c(I)cc(I)c(O)c1I,330
Cn1sc(=O)n(Cc2ccccc2)c1=O,140
CN1CC[C@@]2(C)c3cc(O)ccc3N(C)[C@@H]12,2000
c1cnc(SCc2cccnc2)nc1,9000

# Series 4
# Target: Sal-like protein 4, full length isoform A (SALL4, Homo sapiens, UniProt Q9UJQ4, residues 1-1053)
# UniProt Q9UJQ4, sequence (whole entry, looked up): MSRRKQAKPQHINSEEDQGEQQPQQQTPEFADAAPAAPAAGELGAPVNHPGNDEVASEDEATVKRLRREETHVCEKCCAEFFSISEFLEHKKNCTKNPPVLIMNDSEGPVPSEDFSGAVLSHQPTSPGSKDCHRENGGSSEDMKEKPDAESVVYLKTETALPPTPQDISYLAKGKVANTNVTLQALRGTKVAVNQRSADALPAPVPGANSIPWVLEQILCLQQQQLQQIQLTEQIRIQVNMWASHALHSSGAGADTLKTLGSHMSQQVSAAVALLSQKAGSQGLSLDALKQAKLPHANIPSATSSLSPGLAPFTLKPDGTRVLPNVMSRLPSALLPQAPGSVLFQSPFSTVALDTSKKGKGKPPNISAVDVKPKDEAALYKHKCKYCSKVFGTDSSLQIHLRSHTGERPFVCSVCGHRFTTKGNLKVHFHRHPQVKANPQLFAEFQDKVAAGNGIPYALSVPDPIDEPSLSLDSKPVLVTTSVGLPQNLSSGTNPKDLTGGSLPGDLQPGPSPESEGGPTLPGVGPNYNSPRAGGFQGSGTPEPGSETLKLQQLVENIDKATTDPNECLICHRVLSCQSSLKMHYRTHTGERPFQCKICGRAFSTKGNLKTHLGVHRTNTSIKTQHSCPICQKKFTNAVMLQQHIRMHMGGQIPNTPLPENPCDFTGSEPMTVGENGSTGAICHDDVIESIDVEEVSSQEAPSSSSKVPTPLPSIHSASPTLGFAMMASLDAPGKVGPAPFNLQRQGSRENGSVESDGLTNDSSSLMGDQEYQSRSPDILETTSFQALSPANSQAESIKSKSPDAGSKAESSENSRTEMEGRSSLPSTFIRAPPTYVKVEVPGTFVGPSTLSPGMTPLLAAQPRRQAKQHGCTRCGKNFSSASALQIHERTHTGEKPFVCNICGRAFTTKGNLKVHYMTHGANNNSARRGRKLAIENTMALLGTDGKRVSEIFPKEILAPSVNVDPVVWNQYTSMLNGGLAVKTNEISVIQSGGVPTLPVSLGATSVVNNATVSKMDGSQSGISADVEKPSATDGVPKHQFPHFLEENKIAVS
# Method: universal PBM
# Form: double-stranded DNA, one strand shown
# Sample: in vitro
# Tested at: 600 nM
# Notes: 8-mer, flanks averaged, mean of replicates
# Direction: higher = stronger binding
Oligonucleotide,E-score
CCTTTTGC,-0.16
AGCTCTAG,-0.0277
ATTTCGTC,0.226
GAGGATTA,0.0926
GGCAGTCA,-0.0287
TCTTAGAA,0.214
AATACAGG,0.18
CAGCTACG,-0.165

# For quick reference, copied from above (series 4):
Oligonucleotide,E-score
GAGGATTA,0.0926
